Experimental data pooled from the literature.
Every numbered part comes from another study and shows a few of its results, in no order. Substitutions count along the parent as printed.

Series 1
Target: UBE2I UBC core domain (UniProt P63279)
Method: yeast two-hybrid
Medium: yeast
Notes: mostly zero background
Reference: not given
Reading: higher = stronger interaction
B1: SH3RF2 RING domain (UniProt Q8TEC5); chain DDLTLLDLLECPVCFEKLDVTAKVLPCQHTFCKPCLQRVFKAHKELRCPECRTPVFSNIEAL
B2: TRIM43 RING domain (UniProt Q96BQ3); chain FSHAFQKELTCVICLNYLVDPVTICCGHSFCRPCLCLSWEEAQSPANCPACREPSPKMDFKT
B3: RC3H1 RING domain (UniProt Q5TC82); chain QAPQWTDFLSCPICTQTFDETIRKPISLGCGHTVCKMCLNKLHRKACPFDQTTINTDIELL
B4: TRIM40 RING domain (UniProt Q6P9F5); chain LQKDNQEEGVCPICQESLKEAVSTNCGHLFCRVCLTQHVEKASASGVFCCPLCRKPCSEEVLG
B5: RNF208 RING domain (UniProt Q9H0X6); chain SSAAAGEPLECPTCGHSYNVTQRRPRVLSCLHSVCEQCLQILYESCPKYKFISCPTCRRETVLFTDYG
B6: TRIM5 RING domain (UniProt Q9C035); chain ILVNVKEEVTCPICLELLTQPLSLDCGHSFCQACLTANHKKSMLDKGESSCPVCRISYQPENIRP
B7: TRIM4 RING domain (UniProt Q9C037); chain EAEDIQEELTCPICLDYFQDPVSIECGHNFCRGCLHRNWAPGGGPFPCPECRHPSAPAALRP
B8: TRIML1 RING domain (UniProt Q8N9V2); chain LMENLREELTCFICLDYFSSPVTTECGHSFCLVCLLRSWEEHNTPLSCPECWRTLEGPHFQS
Sequence	lacZ reporter activity
FQGDVDEDLICPICSGVLEEPVQAPHCEHAFCNACITQWFSQQQTCPVDRSVVTVAHLRP (RNF41 RING domain (UniProt Q9H4P4))	0
B1 (SH3RF2 RING domain)	0
B2 (TRIM43 RING domain)	0
B3 (RC3H1 RING domain)	0
QVDKAVFHMQSVKCLKCQEQKRAVLPCQHAALCELCAEGSECPICQPGRAHTLQS (UNK RING domain (UniProt Q9C0B0))	0
B4 (TRIM40 RING domain)	0
B5 (RNF208 RING domain)	0
B6 (TRIM5 RING domain)	0
B7 (TRIM4 RING domain)	0
VEPSEENSKDCVVCQNGTVNWVLLPCRHTCLCDGCVKYFQQCPMCRQFVQESFALC (CGRRF1 RING domain (UniProt Q99675))	0
B8 (TRIML1 RING domain)	0

Series 2
Target: RING finger protein unkempt homolog, zinc fingers 1-6, GST-SBP tag (UNK, Homo sapiens, UniProt Q9C0B0, residues 30-357)
Method: RNA Bind-n-Seq
Molecule type: RNA
Medium: in vitro
Concentration: not given
Notes: RNA with constant flanks, ends assumed
Reference: input RNA pool
Reading: higher = stronger binding
Constant ends, left off below: GGGAGUUCUACAGUCCGACGAUC … CAACAGAGGAUUGAGCAUCA
Oligonucleotide	bound/input enrichment [ratio]
CUCAUUGUCUUAGGAUAUAAUGGAUCUCUCCCAAACGGUGAUAGAGGAAGGAGGAAAAGCCGGUUUGCUUUGUUUAAAAGACCUAAGGCAAAUGGGGUGAAGCCUAGCACCGUGCACAUU	0.175
UUCAUUCUACUAUUCCAGAGACUGCAAAACUCCAAGACCACCAAGUUUAUCAAGAGUUUCUCCGUGUUUAUUAACUUAUAUUGCAUUAAGUAUGGGGCACUAGCAUUACAAGAAAUAUUU	1.29
UUUGGACAUCGGUUACAGGAAAACUUUUCCUUAGAUCUUCUCAAAACUGCAUUUGUUAACCGCUGCUAUAUUAAAAGUGAGGAGGCCAAACGCCAACAACUUGGGAUAGAGAAAGAAGCU	0.491
AAUGUGCUGUGUCAAGAGCAGCGGCGGUGACGCAGGUGUAGAGAUUUGUCAGAGCUCAUGCCGUUGCCGUCUUAAGGCCUGUGCAUUUCACUGCGUGGGUUACUCAAUUUAUAAAGCAAA	0.148
GGGACCCCGUGUCAUCGCCCAGGCCGAGCACGGAAAUCUACUUUCUUCAAUGUGUUAACCAACCGUCAGGCUUCAGCAGAAAACUUCCCGUUCUGCACUAUUGAUCCUAAUGAGAGCAGA	0.2
GAUAUUUUGGGUGUUAAAAAGGAAAUGAUCCGACUAGAUGAAGUCCCCAAUCUGAGUUCCUCCGUAUCCAAUUUCGAUCAGCAGCAGCUCGCUAAUUUCUGCCGGAUUCUGGCUGUCACC	0.179

Series 3
Target: RNA binding protein fox-1 homolog 2, RRM domain, GST-SBP tag (RBFOX2, Homo sapiens, UniProt O43251-10, residues 100-194)
Method: RNA Bind-n-Seq
Molecule type: RNA
Medium: in vitro
Concentration: 365 nM
Notes: natural RNA segment, single round, ends assumed
Reference: no-protein control
Reading: higher = stronger binding
Constant ends, left off below: GGGAGUUCUACAGUCCGACGAUC … UGGAAUUCUCGGGUGCCAA
Construct (chain): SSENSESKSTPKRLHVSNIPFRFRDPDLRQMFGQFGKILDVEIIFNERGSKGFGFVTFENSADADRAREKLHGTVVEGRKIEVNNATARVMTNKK
Oligonucleotide	RBNS enrichment (R)
CAGGCCAGUGUCUGCAGAGCCUCAGUUACCAGGUUUGGUUUCUGAGUGCCUAUCUGUGCUCUUUCCUCCCUCUGCGGGCUUCUCUUGCUCUGAGCCUCCCUUCCCCAUUC	0.26
UGUAACACAGCUGUAGCUGCCUAGAAUGCUCUGUAUACUUUAUAUUAAAAAUGCUCUGCAUUUCUUCCAGUGCAAUGAAAUUCAUAUGGUGUCCCACCUUAUUUAAUGAU	0.454
CUACUCUUGUGUUUAGGGGAUGGUGGGAACAUAUCCCAGUGCCCUUGCCUCAUAAUAGAUGUGGUGACUCUCCCGGUAGACCCUAGCAAGGGUCCUCCAUGGUGGUGAGG	0.174
CUCAAAAGUGAGGAAAAUGGAUGUUUUAAAAUGGUAUUUUCAAUUUUUUAUAAGCAAAAUUUUGUAUGUUAUUGUAUAGUAUUUAUUUGAUCUUAUUUACUUUAUGCUAC	2.19
UGUUUCACAGAAUACCAGUUCAGUUUGAUUUGGAAAAAGAUGCCAAACCAAAUUUAUAUGUAGUCUAUAAUCUAAGGGCAUUCUUGAAACUAUUGCCCACAUCCCAUUUU	0.401
UUAAUGCCUUAGCAGAAGAUAAAUCCUACCUAGAGACCUUUGUUCCUUAAAGCAAUAACUGACAACUCUUUGUAGUCCUCCUUGUGGGUAGUUAAGAGUGGGGUCACCCC	0.28
UUGUCCCAGUUGUCCAAAACAGCUGGAACUUGUCUUCACCGCCCAGGGCACCGCCUCCCCGUGUCCUGUGUUUGGUCAGACACCUGCCCUUCACCCUCUGUGUCCAGAGG	0.21
GGCAAUCUUUGCUGAUCUUCUAAAAAUACUUUUUUUUUCCUGAAGAAAAAAAAAGCCACACGAAGUGCAAUAGGGUUGUGCGGCGACUCAUUGAUAUUUCUCUGAUGUGA	0.35
GCCAUGCUGCUCCUUUCUGUAAAUACCCGCUGCAGUGGCGGCCCAGAGCGAGGAACAAGCCAUUAGGACCUGACCGUUGUAAAUACAGCCGCCCGCCCGCCGGUCCCCAG	0.318
UAUAUAUAUUUUUCCUUCACUGUGUCAAGUGGAAACAAAAACAAAAUCUUUCAAAAAAAAAAUCGGGACAAGUGAACACAUUAACAUGAUUCUGUUUGUGCAGAUUAAAA	0.582
AAUGAAAACAUCCCUGCUUCCCAGUCCCCGUGCCCGGCUACUAUCCACACUUGACAUGCGGAGCAAUCCUGCAUGUUGGUCCCCAUCUCCCCCACUAGAAACCCACUUCC	1.37
GUAUGUCGAUUGUAUCGCUGCUACAUCAGACUCUAGAAAAAAGGGCUGAGAGGAAGCAAGACGUAAAGAAUUUUCAUCCCGUAUCACAGUGUUUUUAUUGCUCGCCCAGA	0.89

Series 4
Target: Centromere-binding protein 1, full length, N-terminal tag (CBF1, Saccharomyces cerevisiae, UniProt P17106, residues 1-351)
Chain of UniProt P17106 (whole entry, looked up): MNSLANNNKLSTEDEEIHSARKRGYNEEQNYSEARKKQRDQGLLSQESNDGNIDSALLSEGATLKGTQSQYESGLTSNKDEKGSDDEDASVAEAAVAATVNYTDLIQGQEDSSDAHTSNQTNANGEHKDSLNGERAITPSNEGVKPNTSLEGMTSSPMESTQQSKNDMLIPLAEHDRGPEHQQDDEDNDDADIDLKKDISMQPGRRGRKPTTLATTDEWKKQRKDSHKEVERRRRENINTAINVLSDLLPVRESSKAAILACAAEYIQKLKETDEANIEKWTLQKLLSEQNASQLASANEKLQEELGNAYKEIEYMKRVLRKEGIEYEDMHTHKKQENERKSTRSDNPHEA
Method: protein-binding microarray
Molecule type: double-stranded DNA, one strand shown
Medium: in vitro
Concentration: 0.8 µM
Notes: whole 60-bp probe, no competitor
Reading: higher = stronger binding
Constant ends, left off below: … GTCTTGATTCGCTTGACGCTGCTG
Oligonucleotide	fluorescence intensity [a.u.]
CTATAACTAGTTCATCAGTTGATGTGTCTGTATTTC	504
CTACCTATAAGAAGCCGCATCACCTTAAACACTTTC	509
CTACTGCTCAACTAGAAGGTGGTGTTAATAACTTTC	520
GAATACCTAGTAAATCACGATGAGAATTATATATAG	577
GAAATTCTTCTCGTTCCCGTGATGTTTTCAATATAG	1290
GAATATTAACAATGACACGTTATTTTATATGTATAG	668
GAAGTTCCGGCCGCACGTGCAGCGCATGTGTACTAG	6800
CTAATTATGCTGAAGTACGTGGTGACGGATATTTTC	545
GAATGAATTTTCATTCACGTGATCTACATTCCCTAG	23300
GAATTAGCGAGCCAGCACGTTTCCTTCGCGCCGTAG	566
GAACATTTAATGCGTGACGTTGAATCGAGAAAATAG	1270
CTACATATGATGTCCCACATGACGCAAGTAACTTTC	860
CTAACTTGGCTCCACCAGCTGATGTGTGCATTTTTC	574
GAACACTAGCTTATATACGTGACTTCTGTGACTTAG	695
GAATTCTCTTTTGGTGGTGCGCTTTTGCATTTTTAG	508
CTAAGGATATTCAGTTGCGTGAAATCATGACGATTC	526
CTAATAGTACCTTAACACATGACGAAGATGAAATTC	1310
CTATTGTCTTTTCATGTGAGCAGAACTAAAATCTTC	715
CTATTCAGGGCTGCTCACAACGTGATATATTTGTTC	2000
CTAAACGGCTATTATCACGCTATGGAAGAACCCTTC	583
GAATCTCTTTTTTTTCACATGCGCAGAACCTATTAG	715
GAATGAAACAAATATTTCGTGACAGAATACTAATAG	558
GAAGAATTTTGCTTACTCGTGCTGCCGGGGACATAG	592

Series 5
Target: CCNE1, cyclin fold, Cln2 fusion (human)
Method: yeast growth competition, sequencing
Medium: yeast
Notes: strong parent motif
Reference: not given
Reading: higher = stronger binding
Parent: GMNC docking peptide (human); KNAKRNLSSEFAN
Substitution	normalised enrichment score
K4S	0.257
R5H	0.292
R5W	0.201
N6D	0.644
K4E	-0.146
E10R	0.976
N6Q	0.376
N6Y	-0.604
S9I	1.41
S8H	0.664
S8Q	1.3
K4V	2.34
F11N	-0.299
K4W	0.0994
N2F	0.784
S9M	1.61
N2T	1.89

Series 6
Target: Histone acetyltransferase KAT6A, winged helix 1, GST fusion (KAT6A, Homo sapiens, UniProt Q92794, residues 1-85)
Method: protein binding microarray
Molecule type: double-stranded DNA, one strand shown
Medium: in vitro
Concentration: not given
Notes: 8-mer, flanks averaged, mean of 2 arrays, mostly near background
Reference: not given
Reading: higher = stronger binding
Residues (chain): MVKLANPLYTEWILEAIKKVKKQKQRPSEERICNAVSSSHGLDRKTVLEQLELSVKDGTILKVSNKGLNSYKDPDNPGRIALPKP
Oligonucleotide	E-score
TCCTCCGA	-0.0305
ACTCGGCT	0.135
ATACCGGG	0.224
CTAGCCCA	-0.162
CCTGTTAA	-0.211
GGCGGGAA	0.381
ATGATAAC	-0.152
CGTTAGAA	-0.165
CTCCGGGC	0.0284
CCAGCTGA	-0.245
CCATATCC	0.0131
AAGGTAGG	-0.0934
CACAATAA	-0.263
ATTATTGA	-0.239
ATCTAACG	0.0415
CAGAAAGA	-0.192
AAGTTTGT	-0.209
CAGCAGTC	-0.0554
ACGAGTGA	-0.125
AGGTTGAG	-0.263
CGCCTCAC	0.0969
CCTTAATC	-0.108
CAATATGG	-0.186
CGTCATAA	-0.065
CGATCGAA	0.0575

Series 7
Target: Sal-like protein 4, full length isoform A (SALL4, Homo sapiens, UniProt Q9UJQ4, residues 1-1053)
Chain of UniProt Q9UJQ4 (whole entry, looked up): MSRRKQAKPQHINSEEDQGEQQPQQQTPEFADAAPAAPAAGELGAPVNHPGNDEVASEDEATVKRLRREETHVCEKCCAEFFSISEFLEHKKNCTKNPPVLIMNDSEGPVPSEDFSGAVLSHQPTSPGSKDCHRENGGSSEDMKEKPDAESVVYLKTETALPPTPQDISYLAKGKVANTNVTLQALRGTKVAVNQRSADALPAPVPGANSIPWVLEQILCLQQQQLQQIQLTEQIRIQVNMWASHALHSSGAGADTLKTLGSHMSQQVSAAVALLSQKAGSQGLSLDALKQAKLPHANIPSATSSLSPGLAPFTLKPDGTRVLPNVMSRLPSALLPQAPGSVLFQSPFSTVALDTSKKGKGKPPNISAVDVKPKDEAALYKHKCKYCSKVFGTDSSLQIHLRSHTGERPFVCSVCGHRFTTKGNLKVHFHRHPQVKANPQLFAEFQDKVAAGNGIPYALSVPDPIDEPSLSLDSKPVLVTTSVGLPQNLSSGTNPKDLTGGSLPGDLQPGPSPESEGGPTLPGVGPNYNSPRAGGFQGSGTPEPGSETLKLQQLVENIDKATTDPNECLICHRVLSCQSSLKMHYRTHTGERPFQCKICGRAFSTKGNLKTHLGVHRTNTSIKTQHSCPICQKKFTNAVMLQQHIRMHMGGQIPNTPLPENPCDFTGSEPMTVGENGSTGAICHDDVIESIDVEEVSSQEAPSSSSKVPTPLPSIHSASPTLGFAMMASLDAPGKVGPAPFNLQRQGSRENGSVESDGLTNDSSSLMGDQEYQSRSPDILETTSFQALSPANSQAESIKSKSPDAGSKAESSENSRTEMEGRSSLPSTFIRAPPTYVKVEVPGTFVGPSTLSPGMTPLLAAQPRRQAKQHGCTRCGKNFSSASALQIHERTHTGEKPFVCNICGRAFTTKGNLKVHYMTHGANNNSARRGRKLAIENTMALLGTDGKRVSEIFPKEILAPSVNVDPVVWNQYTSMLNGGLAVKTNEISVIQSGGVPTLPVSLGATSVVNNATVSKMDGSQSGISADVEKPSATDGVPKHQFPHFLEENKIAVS
Method: universal PBM
Molecule type: double-stranded DNA, one strand shown
Medium: in vitro
Concentration: 600 nM
Notes: 8-mer, flanks averaged, mean of replicates
Reading: higher = stronger binding
Oligonucleotide	E-score
GTGGTTGA	-0.0545
AATTGAGG	0.0119
CGGGAAAG	-0.294
AACCCTGG	-0.167
AGTTGAGC	-0.197
CAGTACCA	-0.104
AGCTCTCG	-0.149
CTGCAACA	0.0188
ATAGTGTG	0.0986
GGTTCCCA	-0.258
GAATGACA	0.153
CCTATGAC	0.0912
CTGGTGTA	-0.158
GACCCTTA	0.077
CAGAACCG	-0.23
CAACTCTA	0.00398
GATAGTGA	0.161
GGGTGTGA	-0.129

For quick reference, copied from above (series 1):
Sequence	lacZ reporter activity
B2 (TRIM43 RING domain)	0
VEPSEENSKDCVVCQNGTVNWVLLPCRHTCLCDGCVKYFQQCPMCRQFVQESFALC (CGRRF1 RING domain (UniProt Q99675))	0
B1 (SH3RF2 RING domain)	0
FQGDVDEDLICPICSGVLEEPVQAPHCEHAFCNACITQWFSQQQTCPVDRSVVTVAHLRP (RNF41 RING domain (UniProt Q9H4P4))	0
B4 (TRIM40 RING domain)	0
B8 (TRIML1 RING domain)	0
B3 (RC3H1 RING domain)	0
B6 (TRIM5 RING domain)	0
QVDKAVFHMQSVKCLKCQEQKRAVLPCQHAALCELCAEGSECPICQPGRAHTLQS (UNK RING domain (UniProt Q9C0B0))	0
B7 (TRIM4 RING domain)	0
B5 (RNF208 RING domain)	0
